Measured values of several laboratories.
Numbered parts are unrelated; each lists some results of a single study.

Sample 1
Target: Centromere-binding protein 1, full length, His-tagged (CBF1, Saccharomyces cerevisiae, UniProt P17106, residues 1-351)
UniProt P17106, sequence (whole entry, looked up): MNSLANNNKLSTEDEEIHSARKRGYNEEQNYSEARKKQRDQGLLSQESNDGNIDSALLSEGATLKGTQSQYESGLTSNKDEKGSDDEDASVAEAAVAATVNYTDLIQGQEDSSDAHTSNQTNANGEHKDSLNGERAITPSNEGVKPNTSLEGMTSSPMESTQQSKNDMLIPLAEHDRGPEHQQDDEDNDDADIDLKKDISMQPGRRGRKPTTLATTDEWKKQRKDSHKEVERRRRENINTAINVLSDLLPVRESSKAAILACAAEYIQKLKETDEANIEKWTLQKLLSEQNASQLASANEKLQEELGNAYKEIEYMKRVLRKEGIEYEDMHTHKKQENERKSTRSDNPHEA
Technique: competition protein-binding microarray
Form: double-stranded DNA, one strand shown
Sample: in vitro
Tested at: 2 µM
Notes: whole 60-bp probe, lowest competitor level
Together with: Pho4 competitor, 0.05 µM
Direction: higher = stronger binding
| Strand | fluorescence intensity |
| --- | --- |
| TTCAAACTAAGTTGACCCGTGAATTGGAAAAGAAATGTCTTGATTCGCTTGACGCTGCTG | 83.7 a.u. |
| CTAACGAAGGTTTTTCACGTGGTCTACAAGCCAAGTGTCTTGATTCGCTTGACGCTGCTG | 1140 a.u. |
| AGAGTGGTGCTGAAGCTCGTGACGGGAACAAGATCAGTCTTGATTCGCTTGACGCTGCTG | 276 a.u. |
| CTAACGAAGGTTTGAATCGTGGGTGACAAGCCAAGTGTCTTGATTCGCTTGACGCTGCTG | 73.6 a.u. |
| CAATCTGATGATGTGGTCGTGGGTAGGCTTAGCCAAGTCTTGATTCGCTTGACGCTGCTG | 66.2 a.u. |

Sample 2
Target: Histone acetyltransferase KAT6A, both winged helices, GST fusion (KAT6A, Homo sapiens, UniProt Q92794, residues 1-181)
Technique: protein binding microarray
Form: double-stranded DNA, one strand shown
Sample: in vitro
Tested at: not given
Notes: 8-mer, flanks averaged, mean of 2 arrays, mostly near background
Baseline: not given
Direction: higher = stronger binding
Construct (chain): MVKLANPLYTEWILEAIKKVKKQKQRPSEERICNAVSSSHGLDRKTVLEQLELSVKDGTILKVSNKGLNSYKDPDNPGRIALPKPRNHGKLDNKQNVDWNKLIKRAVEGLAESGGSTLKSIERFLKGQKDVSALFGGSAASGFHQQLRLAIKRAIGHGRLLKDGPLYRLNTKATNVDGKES
| Strand | E-score |
| --- | --- |
| TGATTCCA | -0.12 |
| CGCATGGA | 0.0151 |
| GGCCTAAA | 0.111 |
| ACGTTCAC | 0.0587 |
| TATCACGA | -0.235 |

Sample 3
Target: Sal-like protein 4, full length isoform A (SALL4, Homo sapiens, UniProt Q9UJQ4, residues 1-1053)
UniProt Q9UJQ4, sequence (whole entry, looked up): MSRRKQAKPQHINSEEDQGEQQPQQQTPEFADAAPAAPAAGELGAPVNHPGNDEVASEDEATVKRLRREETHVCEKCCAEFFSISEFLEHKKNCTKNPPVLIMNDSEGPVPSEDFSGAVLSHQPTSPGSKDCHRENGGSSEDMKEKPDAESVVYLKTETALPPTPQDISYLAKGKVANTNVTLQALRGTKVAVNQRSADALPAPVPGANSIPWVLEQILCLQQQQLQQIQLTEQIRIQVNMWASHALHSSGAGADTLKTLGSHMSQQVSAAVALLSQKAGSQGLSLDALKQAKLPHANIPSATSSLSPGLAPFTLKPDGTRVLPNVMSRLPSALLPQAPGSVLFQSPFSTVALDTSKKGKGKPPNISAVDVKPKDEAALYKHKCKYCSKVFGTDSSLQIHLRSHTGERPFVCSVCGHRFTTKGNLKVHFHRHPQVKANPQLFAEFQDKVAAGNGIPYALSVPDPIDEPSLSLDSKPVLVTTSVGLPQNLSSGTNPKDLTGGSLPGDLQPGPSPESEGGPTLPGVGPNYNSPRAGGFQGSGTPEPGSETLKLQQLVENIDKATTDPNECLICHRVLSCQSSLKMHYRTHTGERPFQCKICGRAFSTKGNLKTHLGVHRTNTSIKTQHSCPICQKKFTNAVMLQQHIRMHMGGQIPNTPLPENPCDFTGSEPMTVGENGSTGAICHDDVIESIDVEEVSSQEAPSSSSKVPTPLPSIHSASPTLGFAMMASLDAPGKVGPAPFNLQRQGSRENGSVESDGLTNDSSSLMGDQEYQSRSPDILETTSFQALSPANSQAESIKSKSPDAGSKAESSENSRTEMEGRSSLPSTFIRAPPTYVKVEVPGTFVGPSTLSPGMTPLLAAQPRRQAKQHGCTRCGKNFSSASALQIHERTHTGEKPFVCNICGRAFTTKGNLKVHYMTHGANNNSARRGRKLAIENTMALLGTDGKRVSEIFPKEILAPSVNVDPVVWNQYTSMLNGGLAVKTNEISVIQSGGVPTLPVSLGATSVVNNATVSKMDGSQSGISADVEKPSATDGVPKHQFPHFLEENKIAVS
Technique: universal PBM
Form: double-stranded DNA, one strand shown
Sample: in vitro
Tested at: 600 nM
Notes: 8-mer, flanks averaged, mean of replicates
Direction: higher = stronger binding
| Strand | E-score |
| --- | --- |
| GGAGCCAC | -0.423 |
| AAAGCTAA | 0.133 |
| AAACTCAC | 0.0749 |

Other studies, line by line
| Molecule | target | assay | system | conditions | how to read | quantity | value |
| --- | --- | --- | --- | --- | --- | --- | --- |
| PhoQ, residues 284 288 289 292 302 303 SSTMSV | PhoP, residues 12 14 15 18 19 IQSYL (Escherichia coli, UniProt P23836) | Sort-seq, refers to: YFP reporter | E. coli | PhoQ-PhoP variant library, together with: 10 µM Mg2+ | baseline: high Mg2+ state, higher = stronger signaling | fold induction | 16 |

Excerpt of the above (sample 1):
| Strand | fluorescence intensity |
| --- | --- |
| CAATCTGATGATGTGGTCGTGGGTAGGCTTAGCCAAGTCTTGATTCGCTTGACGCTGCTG | 66.2 a.u. |
